Experimental data from different studies.
Each numbered part is a random draw from the data of one study; scales do not carry over between parts.

Block 1
Target: RING finger protein unkempt homolog, zinc fingers 1-6, GST-SBP tag (UNK, Homo sapiens, UniProt Q9C0B0, residues 30-357)
Technique: RNA Bind-n-Seq
Form: RNA
Medium: in vitro
Tested at: not given
Setting: RNA with constant flanks, human and mouse sites, ends assumed
Baseline: input RNA pool
Direction: higher = stronger binding
Measurement: bound/input enrichment
Construct (chain): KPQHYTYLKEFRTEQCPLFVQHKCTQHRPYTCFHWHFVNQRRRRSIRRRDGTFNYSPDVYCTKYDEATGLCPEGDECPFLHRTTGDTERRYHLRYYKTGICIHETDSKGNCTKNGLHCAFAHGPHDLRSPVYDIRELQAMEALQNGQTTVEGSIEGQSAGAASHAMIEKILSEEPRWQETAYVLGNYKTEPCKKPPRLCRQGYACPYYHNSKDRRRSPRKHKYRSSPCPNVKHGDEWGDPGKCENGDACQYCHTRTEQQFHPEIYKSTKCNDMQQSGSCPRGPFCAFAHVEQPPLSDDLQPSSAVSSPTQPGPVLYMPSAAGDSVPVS
Oligonucleotide = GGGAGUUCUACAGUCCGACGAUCACAUCCUCAGUUUUUCAUGAAGUUUCUAGACCCAAACCGUUAUCGGCAUUUCCAAAGAAAGCUAUAACUGGAACAGUGUUAACCCGAUCUACGUUCAUCAGCAAUGUUUUAUCUAAAAUUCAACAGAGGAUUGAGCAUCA; result = 0.201 ratio
Oligonucleotide = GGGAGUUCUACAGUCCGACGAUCAAACAAAAAGAAAAAGAAAAAGAAAAAGAAAAAGUUAAAAAAUAAAUAUAAGAGGGAUAAUUUGAUGGUAAUAGUAUCCCAGUACAAAAAGGCUGUAAGAUAGUGAACCACAGUAGUCAUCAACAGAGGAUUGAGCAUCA; result = 6.13 ratio
Oligonucleotide = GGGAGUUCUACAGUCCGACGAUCGACUACAACAUCCAGAAAGAGUCCACUCUGCACUUGGUCCUGCGCUUGAGGGGGGGUGUCUAAGUUUCCCCUUUUAAGGUUUCAACAAAUUUCAUUGCACUUUCCUUUCAAUAAAGUUGUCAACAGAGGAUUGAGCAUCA; result = 0.416 ratio
Oligonucleotide = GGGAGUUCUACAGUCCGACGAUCCUCUCCAACUGCAACCACACCUACUGUCUCAAGUGCAUUCGCAAGUGGAGGAGUGCUAAGCAAUUUGAGAGCAAGAUCAUAAAGUCCUGCCCAGAAUGCCGGAUCACAUCUAACUUUGUCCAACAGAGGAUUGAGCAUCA; result = 0.0866 ratio
Oligonucleotide = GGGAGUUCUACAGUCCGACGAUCAAUAAGGAAAAGUAUGGCAAACCAAAUAAAAGAAAAGGUUUUAAUGAAGGUUUAUGGGAGAUAGAUAACAAUCCAAAAGUGAAAUUUUCAAGUCAACAGGCAGCAACUAAACAAUCAAAUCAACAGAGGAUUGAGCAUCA; result = 0.695 ratio
Oligonucleotide = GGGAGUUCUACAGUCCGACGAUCUAACUCCCCCAUCCCACGAUUUAAAUAGGGCUCCUCGUGUACCAGUUCAAGCACUGCCCAUGGUUGUUCCACCUCAGGAGCCUGACAAACCACCUGCCAAUGUUGCCACCACUCUUCCCACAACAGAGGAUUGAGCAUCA; result = 0.176 ratio
Oligonucleotide = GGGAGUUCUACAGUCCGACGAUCAGGAUUAACAAUGGACAACACAAAGCCCAGUCUUACUAUUUAUAUGUACAGUAUUUGGUGAUAGAGAGCAAAGGAAAAACACAUCAGAACAGUUGCCUUAACACUGAAAAACAUACCCUGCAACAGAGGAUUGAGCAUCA; result = 0.151 ratio
Oligonucleotide = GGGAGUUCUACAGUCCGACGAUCAAGAGCAGGGGGAGUAAUUUCAGUGCAAGUCAGAGCACUGACGACAACCUCCCAAACACCACCAGUGACUGUAGGCUCGAGGGCGAGGCCCCUUAUCUGUUGAGUCCAGAGGCUGGGCCACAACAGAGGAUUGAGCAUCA; result = 0.091 ratio

Block 2
Target: TAR DNA-binding protein 43, full length, His tag (TARDBP, Homo sapiens, UniProt Q13148, residues 1-414)
Technique: RNA Bind-n-Seq
Form: RNA
Medium: in vitro
Tested at: 20 nM
Setting: 6-mer, flanks averaged, single round
Added: 150 mM KCl
Baseline: input library
Direction: higher = stronger binding
Measurement: 6-mer enrichment (R)
Oligonucleotide = GAGCAC; result = 0.919
Oligonucleotide = AACUGG; result = 0.955
Oligonucleotide = CACGUG; result = 0.936
Oligonucleotide = CCGAAC; result = 0.667
Oligonucleotide = AAACAA; result = 0.749
Oligonucleotide = GGAGUG; result = 3.47
Oligonucleotide = CAGGCC; result = 0.879
Oligonucleotide = GGCGAU; result = 1.5
Oligonucleotide = ACGGCU; result = 0.785
Oligonucleotide = AUAGCA; result = 0.669

Block 3
Target: Phosphate system positive regulatory protein PHO4, full length, GST-tagged (PHO4, Saccharomyces cerevisiae, UniProt P07270, residues 1-312)
Technique: competition protein-binding microarray
Form: double-stranded DNA, one strand shown
Medium: in vitro
Tested at: 2 µM
Setting: whole 60-bp probe, lowest competitor level
Added: Cbf1 competitor, 0.05 µM
Direction: higher = stronger binding
Measurement: fluorescence intensity
Target sequence (chain): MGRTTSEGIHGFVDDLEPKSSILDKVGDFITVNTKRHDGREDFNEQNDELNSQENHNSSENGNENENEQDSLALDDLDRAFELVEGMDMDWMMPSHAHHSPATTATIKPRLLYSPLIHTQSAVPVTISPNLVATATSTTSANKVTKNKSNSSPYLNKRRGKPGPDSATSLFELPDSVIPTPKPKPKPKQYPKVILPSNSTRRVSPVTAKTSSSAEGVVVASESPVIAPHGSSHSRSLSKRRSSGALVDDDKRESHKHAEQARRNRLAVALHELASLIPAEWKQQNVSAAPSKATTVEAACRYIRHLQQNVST
Oligonucleotide = CGGGGTTAAGTTTACCACGTGTTTTGCTTGCAGCAGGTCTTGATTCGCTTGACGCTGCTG; result = 17400 a.u.
Oligonucleotide = GCCTCCATATTACTCACCGTGCCAGACCCATTGTCGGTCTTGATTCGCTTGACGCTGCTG; result = 6790 a.u.
Oligonucleotide = TTGAGAAGTGGGACCCACGTGCCACTCCCTGTTCTGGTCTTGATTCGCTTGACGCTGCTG; result = 20500 a.u.
Oligonucleotide = GTCTTGTCTCATTGCTCGGTGGGTGTCCCCACTTCAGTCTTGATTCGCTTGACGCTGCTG; result = 4570 a.u.
Oligonucleotide = CTTTCCCGATCTTGGAAAGTGGGTGTAGCACATTTGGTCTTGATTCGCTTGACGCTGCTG; result = 4170 a.u.
Oligonucleotide = CTGGTAAGTTTTTGGCCTGTGCGGGTTCATAAGGGAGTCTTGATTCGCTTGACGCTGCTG; result = 4410 a.u.
Oligonucleotide = GGTTTTCTTTTTTGGAATGTGATATATATACATATTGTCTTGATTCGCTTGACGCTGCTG; result = 5910 a.u.
Oligonucleotide = ATGCAATTTTTTCACCACGTGCTAATTCTCTTTGTTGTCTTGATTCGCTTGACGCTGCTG; result = 21500 a.u.
Oligonucleotide = TTCGCCCACAAAAGTTGCGTGCCGATCTAGTTCCAGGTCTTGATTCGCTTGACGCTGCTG; result = 6860 a.u.

Single results of other studies
Substance = PhoQ, residues 284 288 289 292 302 303 GANMMA; target = PhoP, residues 12 14 15 18 19 NMSSL (Escherichia coli, UniProt P23836); assay = Sort-seq, measured: YFP reporter; test system = E. coli; setting = PhoQ-PhoP variant library, added: 10 µM Mg2+; scale = baseline: high Mg2+ state, higher = stronger signaling; measurement = fold induction; result = 20.5

Some of these lines once more (block 1):
Oligonucleotide = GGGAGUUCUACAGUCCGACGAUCAAACAAAAAGAAAAAGAAAAAGAAAAAGAAAAAGUUAAAAAAUAAAUAUAAGAGGGAUAAUUUGAUGGUAAUAGUAUCCCAGUACAAAAAGGCUGUAAGAUAGUGAACCACAGUAGUCAUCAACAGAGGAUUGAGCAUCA; result = 6.13 ratio
Oligonucleotide = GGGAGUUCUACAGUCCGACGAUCGACUACAACAUCCAGAAAGAGUCCACUCUGCACUUGGUCCUGCGCUUGAGGGGGGGUGUCUAAGUUUCCCCUUUUAAGGUUUCAACAAAUUUCAUUGCACUUUCCUUUCAAUAAAGUUGUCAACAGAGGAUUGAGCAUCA; result = 0.416 ratio
Oligonucleotide = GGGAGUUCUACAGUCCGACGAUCCUCUCCAACUGCAACCACACCUACUGUCUCAAGUGCAUUCGCAAGUGGAGGAGUGCUAAGCAAUUUGAGAGCAAGAUCAUAAAGUCCUGCCCAGAAUGCCGGAUCACAUCUAACUUUGUCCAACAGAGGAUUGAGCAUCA; result = 0.0866 ratio
